{"data": "Experimental data gathered from unrelated publications", "note": "A part holds a random share of what one study measured."}
{"data": "Block 1", "target": "Histone acetyltransferase KAT6A, winged helix 2, GST fusion (KAT6A, Homo sapiens, UniProt Q92794, residues 85-181)", "technique": "protein binding microarray", "form": "double-stranded DNA, one strand shown", "sample": "in vitro", "tested at": "not given", "setting": "8-mer, flanks averaged, mean of 2 arrays, mostly near background", "baseline": "not given", "reading": "higher = stronger binding", "Construct (chain)": "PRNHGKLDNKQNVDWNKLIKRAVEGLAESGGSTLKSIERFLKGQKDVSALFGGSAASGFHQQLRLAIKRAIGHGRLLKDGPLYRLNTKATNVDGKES"}
{"Strand": "GGTAATAA", "E-score": -0.0568}
{"Strand": "GGTTACCA", "E-score": 0.0206}
{"Strand": "CCTGACCC", "E-score": -0.0474}
{"Strand": "ATACCGGA", "E-score": -0.0154}
{"Strand": "TTGACAAA", "E-score": 0.0394}
{"Strand": "GTTAGTAA", "E-score": 0.0918}
{"Strand": "AAGTAGAG", "E-score": -0.139}
{"Strand": "AACATGGC", "E-score": -0.189}
{"Strand": "GGCATTTA", "E-score": -0.105}
{"Strand": "ATACGGTG", "E-score": 0.0352}
{"Strand": "AAGTTGGG", "E-score": -0.174}
{"Strand": "CATAAAAG", "E-score": -0.0749}
{"Strand": "AGTCAAAG", "E-score": -0.0785}
{"Strand": "AATCCGGG", "E-score": 0.0684}
{"Strand": "CTCTGCCC", "E-score": 0.11}
{"Strand": "CCTACCCC", "E-score": -0.0698}
{"Strand": "GTGATGGA", "E-score": -0.0408}
{"Strand": "CCAATGCA", "E-score": -0.104}
{"Strand": "ACACATAC", "E-score": -0.104}
{"Strand": "TACGGCTA", "E-score": -0.179}
{"Strand": "ATAGTGAT", "E-score": -0.101}
{"Strand": "CTTAGTGA", "E-score": -0.151}
{"Strand": "ACCTTATG", "E-score": 0.00342}
{"Strand": "ATTGGATG", "E-score": 0.119}
{"Strand": "CTAGCTCC", "E-score": -0.114}
{"data": "Block 2", "target": "RING finger protein unkempt homolog, zinc fingers 1-6, SBP tag (UNK, Homo sapiens, UniProt Q9C0B0, residues 30-357)", "technique": "RNA Bind-n-Seq", "form": "RNA", "sample": "in vitro", "tested at": "100 nM", "setting": "RNA with constant flanks, vertebrate orthologous sites, ends assumed", "baseline": "input RNA pool", "reading": "higher = stronger binding", "UniProt Q9C0B0, sequence (30-357, looked up)": "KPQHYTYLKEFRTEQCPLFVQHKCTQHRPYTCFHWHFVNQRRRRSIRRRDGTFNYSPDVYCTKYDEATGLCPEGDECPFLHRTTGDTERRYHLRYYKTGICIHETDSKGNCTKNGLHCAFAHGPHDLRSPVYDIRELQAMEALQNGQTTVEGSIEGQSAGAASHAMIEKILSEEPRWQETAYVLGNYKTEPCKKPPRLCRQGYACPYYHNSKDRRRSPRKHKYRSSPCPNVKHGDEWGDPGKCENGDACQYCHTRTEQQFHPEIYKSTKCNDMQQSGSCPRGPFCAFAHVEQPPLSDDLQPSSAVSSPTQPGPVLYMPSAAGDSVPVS"}
{"Strand": "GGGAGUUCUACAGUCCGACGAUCGGUUCUGUCUGUUGGUGCAGAGUGCUCUGCGCCAGUGCUCAUCAUCCCUUCGUACUGAACCUAGCUAUAGGAAUUUAAUAUUUUUAAAAGUUUUACAUUGCUGUAUAUUCAAAGAUUUGUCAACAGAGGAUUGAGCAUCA", "bound/input enrichment": "0.581 ratio"}
{"Strand": "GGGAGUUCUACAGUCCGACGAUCUCCUAAAGCUUUGUGUUUGGCUGCACCUGCAUAAGCUGCUACAAAUAGAUAAAGAAUUCAUAGCCUGUAUCUAUCAUUUAGAUGCAUGGAAAAAUGGGCUUUGCACACAAUGGGUUUGAACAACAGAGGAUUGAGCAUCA", "bound/input enrichment": "0.75 ratio"}
{"Strand": "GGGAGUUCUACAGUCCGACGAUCGAGAACAGGAAUAUGUCUUUAUUGAGAAUAGUUUGGUGCUGAGGACUAUGUUAGAUUAAAAAAUGAAUUGAUUCCUAUUUGUUGUGUUGCUUUCAUUCAUUGAAAAUCAAAUAAAACUUUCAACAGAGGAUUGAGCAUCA", "bound/input enrichment": "0.474 ratio"}
{"Strand": "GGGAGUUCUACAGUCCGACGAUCUGGGUUACUCCUAUUAUUAUCAAGUAGCUGGAAUUGUGAAGGUCGGAGUAGUUAGAUCUUUAGCUUUUAUUCUUUUUUUUUUUUUUGUAUUACUAUCCAUGUGUAUAAAUUAUUGAUCAUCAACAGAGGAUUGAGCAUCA", "bound/input enrichment": "5.35 ratio"}
{"Strand": "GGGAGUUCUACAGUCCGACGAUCCUUUUUUCUCUCUUUCCCCUUCCUUUUCCUUUCUGGGGGGUACAGUUUGCUCUCUCCCGAUCGUGAUCGUAACAAACUGAUCUGUUCUGGGUGUUGCUCUAGUGACAUGCGAUUCUAUAGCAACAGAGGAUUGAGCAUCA", "bound/input enrichment": "0.82 ratio"}
{"Strand": "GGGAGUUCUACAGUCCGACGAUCAUUAAAUGUGUAUCAAAUGCUGGAUGUAACAUUAAACCAUCAUUUAGAAUAGAGGUUGUUAUAAUUAAGCAACAAAUGGGUUUCCUUAAACCAGAGAUGCACUGCCCUUGUCUGAAGUUCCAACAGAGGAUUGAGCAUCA", "bound/input enrichment": "0.505 ratio"}
{"Strand": "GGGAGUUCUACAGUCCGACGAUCAGAAGAGCUGAGUAAAGUAAGGCCGUGUUCACUUAGAGUGUUUUUCUUGUUUUUAGUUUGCUAGGGGUUGGGUGGGUUGUGGUACACACCUUCUCUGAGGCAGGAGCUGUAAUGAUACCUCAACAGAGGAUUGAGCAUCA", "bound/input enrichment": "3.05 ratio"}
{"Strand": "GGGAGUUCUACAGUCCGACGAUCGCAAAUCCAAUCACUGUGAUAUUUAAAAUAUGCACAGUCCUAAUUCUUUCUCAAUGAUCCUAGUAUUUUCCUAGCUGUAUCUUUGUAUCUCAUACUGUUAUUUAUCAGUUUUGUUCCCCUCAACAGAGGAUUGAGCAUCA", "bound/input enrichment": "0.935 ratio"}
{"Strand": "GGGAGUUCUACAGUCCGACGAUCCAUUGUAGUAAUGAAAAUGAUCUUAAUUCUGCACGACCCACAGUAAUAACUAGUUUACAUUAGCAGAAUCGUUUACUUUCACUUUUUAAAUUAUCUGCUUUUUCUGCUGCCUGAACCCAACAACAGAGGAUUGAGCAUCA", "bound/input enrichment": "1.29 ratio"}
{"Strand": "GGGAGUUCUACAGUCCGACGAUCAUAUAAGAACUCUUACAGUCUUAGAUGUUAAAAAAUAUAUAUCUGAAUUGUAAGAGUUAGCACAGGUGUUUUUGUUUUUUUUUUUUAAGCACUUGUUUUGAGUACAAGUCAUUUCUGAAACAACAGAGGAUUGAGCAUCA", "bound/input enrichment": "0.404 ratio"}
{"Strand": "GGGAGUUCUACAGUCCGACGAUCGACGCCCCUCACCCUGCCCUCGGCCAGGGCUAGGACCUCUGUUACUCCGAGGACCGGCAUUGACAACAACUUUUUGACAUUGUUAACCCAGGAAGAGAUGUGACUAACACUGGCAUCUCGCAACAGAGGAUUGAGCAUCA", "bound/input enrichment": "0.278 ratio"}
{"data": "Block 3", "target": "Interferon regulatory factor 3, full length, phosphomimetic (IRF3, Homo sapiens, UniProt Q14653, residues 1-427, S386D/S396D/S398D/S402D/T404D/S405D)", "technique": "protein-binding microarray", "form": "double-stranded DNA, one strand shown", "sample": "in vitro", "tested at": "2540 nM top", "setting": "60-bp whole probe", "with": "salmon DNA 0.4 mg/ml", "baseline": "random background probes", "reading": "higher = stronger binding", "constant ends, left off below": "GCCTAGCAC … GTCTTGATTCGCTTGACGCTGCTG", "Construct (chain)": "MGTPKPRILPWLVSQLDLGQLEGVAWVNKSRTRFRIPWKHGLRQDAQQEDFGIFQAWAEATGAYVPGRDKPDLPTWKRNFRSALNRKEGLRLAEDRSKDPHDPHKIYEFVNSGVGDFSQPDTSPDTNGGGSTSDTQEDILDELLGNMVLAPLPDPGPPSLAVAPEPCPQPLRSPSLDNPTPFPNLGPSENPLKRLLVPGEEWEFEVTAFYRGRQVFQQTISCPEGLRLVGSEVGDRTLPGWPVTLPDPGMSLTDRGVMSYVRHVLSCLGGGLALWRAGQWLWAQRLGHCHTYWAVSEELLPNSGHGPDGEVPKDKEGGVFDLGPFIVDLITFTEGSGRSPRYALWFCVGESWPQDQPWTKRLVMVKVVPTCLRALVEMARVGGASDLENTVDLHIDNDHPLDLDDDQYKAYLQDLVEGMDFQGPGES"}
{"Strand": "GACGGTATCTGTATCGGGACGTGCTAG", "fitted relative affinity [z-score]": 2.61}
{"Strand": "TTAGGTATCATTCTCCTTTAGTGCTAG", "fitted relative affinity [z-score]": 4.74}
{"Strand": "TTCGATATCGGGACTGGATTAGTGCTA", "fitted relative affinity [z-score]": 0.372}
{"Strand": "TTAGGTCTCGGTACCGGTTAGTGCTAG", "fitted relative affinity [z-score]": 0.723}
{"Strand": "TTAGGACTGGGTATTGGTTAGTGCTAG", "fitted relative affinity [z-score]": -0.799}
{"Strand": "GACGATATCAGAATCGAGACGTGCTAG", "fitted relative affinity [z-score]": 1.3}
{"Strand": "TTAGGTCTCGGTCTGGGTTAGTGCTAG", "fitted relative affinity [z-score]": 0.0137}
{"Strand": "GACGGTTTCGGTTTCGGGAGGTGCTAG", "fitted relative affinity [z-score]": 10.7}
{"Strand": "TTAGGTTTCCTTATGCTTTAGTGCTAG", "fitted relative affinity [z-score]": 6.46}
{"Strand": "AATGTATAACGCCATTAGCTGTGCTAG", "fitted relative affinity [z-score]": -0.181}
{"Strand": "TTAGATTTCAGCCTCGATTAGTGCTAG", "fitted relative affinity [z-score]": 0.13}
{"Strand": "GACGGGTTCGGACTGGGGACGTGCTAG", "fitted relative affinity [z-score]": -0.217}
{"Strand": "TCACATTTAGAAAATGGAACTGTGCTA", "fitted relative affinity [z-score]": 1.06}
{"Strand": "GAGGGTCTCGGTCTCGGGACGTGCTAG", "fitted relative affinity [z-score]": -0.0341}
{"Strand": "CGTTTTTCATTTTTTTTTTCGTGCTAG", "fitted relative affinity [z-score]": 3.4}
{"Strand": "GACGATTTCCGGTTTCGAGACGTGCTA", "fitted relative affinity [z-score]": 4.12}
{"Strand": "TCAGCATACCATATCAGACTGTGCTAG", "fitted relative affinity [z-score]": 0.814}
{"Strand": "CACTATTTAAGAACTATGCACGTGCTA", "fitted relative affinity [z-score]": 0.764}
{"data": "Block 4", "target": "RNA binding protein fox-1 homolog 2, RRM domain, GST-SBP tag (RBFOX2, Homo sapiens, UniProt O43251-10, residues 100-194)", "technique": "RNA Bind-n-Seq", "form": "RNA", "sample": "in vitro", "tested at": "365 nM", "setting": "natural RNA segment, single round, ends assumed", "baseline": "no-protein control", "reading": "higher = stronger binding", "Target sequence (chain)": "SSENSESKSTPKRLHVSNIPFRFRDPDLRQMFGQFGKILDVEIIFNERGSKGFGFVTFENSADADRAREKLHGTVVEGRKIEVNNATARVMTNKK"}
{"Strand": "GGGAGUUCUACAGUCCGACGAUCCAAGGCCAGUCUGAACCUGAGGUUGCUUUAUCCUAAAAGUUUUAACCUCAGGUUCCAAAUUCAGUAAAUUUUGGAAACAGUACAGCUAUUUCUCAUCAAUUCUCUAUCAUUGGAAUUCUCGGGUGCCAA", "RBNS enrichment (R)": 0.371}
{"Strand": "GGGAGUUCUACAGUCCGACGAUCUUCCCUCCCCCUGCCUCUUCUGGGUUGGUCACCCCAUAGGACAGCCACAGGACAGUCACUAGCACCUACUGGAAACCUCUUUGUGGGAACAUGAAGAAAGAGCCUUUGGGUGGAAUUCUCGGGUGCCAA", "RBNS enrichment (R)": 0.372}
{"Strand": "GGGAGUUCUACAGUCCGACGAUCUGUCUGUCUGUACGUUUAAUUGAUAGCACCUCUGCCGUGUGUCAUCAACUACUAGACAGCCAGGCUAAGCCUUCUCAUUCUGUUCUGAAGAUUCUAAAAAAAUUCGAACCUGGAAUUCUCGGGUGCCAA", "RBNS enrichment (R)": 0.271}
{"Strand": "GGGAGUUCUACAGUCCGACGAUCUCUUUGACUAUAACAAAAUCUGGGGAGGACAAAGGUGAUUUUCCUGUGUCCACAUCUAACAAAGUCAAGAUUCCCGGCUGGACUUUUGCAGCUUCCUUCCAAGUCUUCCUUGGAAUUCUCGGGUGCCAA", "RBNS enrichment (R)": 0.207}
{"Strand": "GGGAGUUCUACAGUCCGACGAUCAGUUCUGCAUUUAAAAUAUAUUUUUUCUUUAUAGGAAUUGAUGUAUACCAUGAAGUCAUUGUCAGUUGUAGUAGCUCUGAUGUUGAAUGAGAUAUCAUGUUUUAGCAUUCUGGAAUUCUCGGGUGCCAA", "RBNS enrichment (R)": 0.866}
{"Strand": "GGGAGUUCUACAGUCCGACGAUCCCCUUCUGAGCCUGUUGUACUCACUGAUCUCUUUAAAAACAAAAAAUAGCUCUUGUAAAAGGUCACAAUAACUCUAUGCACCUGAUACUGCAGUGGUUCCUAGGCCAUUCUGGAAUUCUCGGGUGCCAA", "RBNS enrichment (R)": 0.423}
{"Strand": "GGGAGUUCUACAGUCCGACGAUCAAAAGGGCCAGAUUUUCAGCAGCCAAGGACAUCCAUACCCAAGUGAAUGUGAUGGGACUUAAAAGAAGUGAACUGAGACAAUUCACUCUGGCUGUUUGAACAGCAGCGUUUGGAAUUCUCGGGUGCCAA", "RBNS enrichment (R)": 0.702}
{"Strand": "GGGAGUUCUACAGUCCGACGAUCCCCUUAUUUAGAAAGGAAACUGUGUGGGGGGAGAUGCAGGCCUGAGCCCCAUAGCGAGCUUGCCUUUUCUGACUGGGUCUUCUGGUCCCCCCUACACCAGCCAUAGGCCUUGGAAUUCUCGGGUGCCAA", "RBNS enrichment (R)": 0.458}
{"Strand": "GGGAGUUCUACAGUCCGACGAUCUAACCUUUUACUUGGGAAUGUGGUGGCCCAAUGUCAGCUGACCUGAAAGAACAUGGCUACCGUGAGACAGCCCUGUGGGCCCUGCUACCCCUCCUAUUUCUGCCUCCCUGUGGAAUUCUCGGGUGCCAA", "RBNS enrichment (R)": 0.348}
